Assay results gathered from unrelated publications.
A part holds a random share of what one study measured.

Study 1
Target: Interferon regulatory factor 3, full length, phosphomimetic (IRF3, Homo sapiens, UniProt Q14653, residues 1-427, S386D/S396D/S398D/S402D/T404D/S405D)
Technique: protein-binding microarray
Form: double-stranded DNA, one strand shown
Medium: in vitro
Concentration: 2540 nM top
Setting: 60-bp whole probe
Added: salmon DNA 0.4 mg/ml
Relative to: random background probes
Reading: higher = stronger binding
Target sequence (chain): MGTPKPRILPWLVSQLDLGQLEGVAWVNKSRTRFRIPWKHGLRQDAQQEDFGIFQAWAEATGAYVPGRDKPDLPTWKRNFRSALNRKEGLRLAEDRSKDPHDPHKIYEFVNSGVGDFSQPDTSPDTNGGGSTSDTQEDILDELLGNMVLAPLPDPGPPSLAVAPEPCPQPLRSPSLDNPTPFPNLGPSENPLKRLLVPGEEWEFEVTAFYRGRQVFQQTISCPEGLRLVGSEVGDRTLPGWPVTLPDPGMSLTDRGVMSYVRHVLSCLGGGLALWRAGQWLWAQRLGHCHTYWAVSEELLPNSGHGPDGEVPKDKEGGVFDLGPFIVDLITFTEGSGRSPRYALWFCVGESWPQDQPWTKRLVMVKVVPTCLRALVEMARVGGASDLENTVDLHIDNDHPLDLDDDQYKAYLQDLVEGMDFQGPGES
Oligonucleotide	fitted relative affinity
GCCTAGCACGACGGTCTCCTTATCCTCACGTGCTAGGTCTTGATTCGCTTGACGCTGCTG	2.48 z-score
GCCTAGCACAACGATCTCAGTATCGAGACGTGCTAGGTCTTGATTCGCTTGACGCTGCTG	0.739 z-score
GCCTAGCACTTAGATTTCCTTCTCCTTTAGTGCTAGGTCTTGATTCGCTTGACGCTGCTG	6.04 z-score

Study 2
Target: RNA binding protein fox-1 homolog 2, RRM domain, GST-SBP tag (RBFOX2, Homo sapiens, UniProt O43251-10, residues 100-194)
Technique: RNA Bind-n-Seq
Form: RNA
Medium: in vitro
Concentration: 365 nM
Setting: natural RNA segment, single round, ends assumed
Relative to: no-protein control
Reading: higher = stronger binding
Oligonucleotide	RBNS enrichment (R)
GGGAGUUCUACAGUCCGACGAUCGCACACAAAUGGACUUCUCUGAAGCUGUGUUUAGUGAAAUGAGCUCAAGUACAUGAAUGUUAGUUGUUAUCACAUACAGCAAAUUCCUUUUUUUUUCUUUUUCUAUGAGCUGGAAUUCUCGGGUGCCAA	2.49
GGGAGUUCUACAGUCCGACGAUCGUUUGUAAAAUAUUUGUUCGUGCUCUUUUUGUUGUUGUUGUUGUUGUUAGGCCCACCACACGAGUUUACAGGUCUGUGGCAAUACUCUUAACUCAGUAAAGAUGGAAGUGUGGAAUUCUCGGGUGCCAA	0.467
GGGAGUUCUACAGUCCGACGAUCCUGCCUUCCUUGCCCUCACUGUUCUGGGGUGGGGGACAUCCCCGGGGAUCCCUGAGAAGAGUGUCCUUUAGAAAGCUAGGCAGAUGUGGAUUGCUGCUAGGAGAGUGACCUGGAAUUCUCGGGUGCCAA	0.612
GGGAGUUCUACAGUCCGACGAUCUACGCUUGGGGGCUGGGAUGCCGUGUACACACGCACAAGUACACAUCGCGCUCAGGACUUCACUGAAGAUUCACGUGCAAUUGAACGCUUCAUUAAACAAAAGAAAACCUUGGAAUUCUCGGGUGCCAA	0.399

Study 3
Target: Histone acetyltransferase KAT6A, winged helix 1, GST fusion (KAT6A, Homo sapiens, UniProt Q92794, residues 1-85)
Technique: protein binding microarray
Form: double-stranded DNA, one strand shown
Medium: in vitro
Concentration: not given
Setting: 8-mer, flanks averaged, mean of 2 arrays, mostly near background
Relative to: not given
Reading: higher = stronger binding
Target sequence (chain): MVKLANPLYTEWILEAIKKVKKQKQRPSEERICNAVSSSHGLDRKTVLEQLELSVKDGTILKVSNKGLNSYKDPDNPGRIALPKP
Oligonucleotide	E-score
CGAAGGTA	-0.061
GTGGCCAA	-0.227
ATGGTAAG	-0.0743

Further values, each from its own experiment
Molecule	target	test	system	conditions	scale	endpoint	result
PhoQ, residues 284 288 289 292 302 303 QWGLFV	PhoP, residues 12 14 15 18 19 SGWQI (Escherichia coli, UniProt P23836)	Sort-seq, measured: YFP reporter	E. coli	PhoQ-PhoP variant library, added: 10 µM Mg2+	relative to: high Mg2+ state, higher = stronger signaling	fold induction	0.489

Repeated from above (study 2):
Oligonucleotide	RBNS enrichment (R)
GGGAGUUCUACAGUCCGACGAUCCUGCCUUCCUUGCCCUCACUGUUCUGGGGUGGGGGACAUCCCCGGGGAUCCCUGAGAAGAGUGUCCUUUAGAAAGCUAGGCAGAUGUGGAUUGCUGCUAGGAGAGUGACCUGGAAUUCUCGGGUGCCAA	0.612
